Measured values of several laboratories.
Values joined by “and” are separate records of one study, mostly repeats; a detail may differ. ± gives the spread as reported.
UCHL1: Ubiquitin carboxyl-terminal hydrolase isozyme L1 (UCHL1, Homo sapiens, UniProt P09936)
UniProt P09936, sequence (whole entry, looked up): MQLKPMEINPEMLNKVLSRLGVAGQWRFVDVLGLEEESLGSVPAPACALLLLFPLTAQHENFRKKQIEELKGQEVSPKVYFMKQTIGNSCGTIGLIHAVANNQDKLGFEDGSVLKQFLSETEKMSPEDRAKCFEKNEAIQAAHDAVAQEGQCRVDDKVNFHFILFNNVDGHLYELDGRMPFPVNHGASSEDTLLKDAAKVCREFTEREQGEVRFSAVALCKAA

`CCOC(=O)c1nn(-c2cccc(Cl)c2)/c(=N/N=C(\C)c2ccc(NC(=O)c3ccccc3)cc2)s1` gave a cytotoxicity of 97.4% (MCF7; MTT; 0.625 µM).
`Fc1ccccc1N1CCN(C2CCCN(Cc3cccc(C(F)(F)F)c3)C2)CC1` (centres unmarked) gave an inhibition of 0.4% (Trypanosoma cruzi; reporter translation, Renilla luciferase mRNA translation; cell-free extract; 40 µM; relative to: DMSO).
`C=CC(=O)c1cccnc1Nc1cc(C(F)(F)F)ccc1C` — result for “TEAD reporter activity”: 51.8 ± 1.8% (MCF7; firefly luciferase reporter; 50 µM, 6 h; relative to: vehicle).
With `CC(=O)c1nn(-c2ccc(Cl)cc2)/c(=N/N=C(\C)c2ccc(NC(=O)c3ccc(Cl)cc3)cc2)s1` the toxicity was 0.129% (MCF7; 0.625 µM).
`OCc1ccc(Nc2ccc3c(Nc4cccc(C(F)(F)F)c4)ncnc3c2)cc1`: “G2/M phase cells” 28.6% (MCF7; IC50, 24 h).
With `CCn1ncc(CN2CCCC(C(=O)c3cccc(OC(C)C)c3)C2)c1C` (centres unmarked) the inhibition was -10.5% (Trypanosoma cruzi; reporter translation, Renilla luciferase mRNA translation; cell-free extract; 40 µM; relative to: DMSO).
`O=CC12c3ccccc3C(c3ccccc31)C1C(=O)N(c3ccc(F)cc3)C(=O)C12` (centres unmarked) has a labelling of 13.3% (UCHL1; covalent, intact protein LC-MS; 12.5 µM).
For `CC(=O)c1nn(-c2ccccc2Cl)/c(=N/N=C(\C)c2ccc(NC(=O)c3ccccc3)cc2)s1`, the cytotoxicity was 90.4% (MCF7; MTT; 0.156 µM).
For `O=[N+]([O-])c1cc(I)c(O)c(C=NNc2ccccc2)c1`, “late apoptotic or dead cells” read 20.1% (MCF7; annexin V; IC50, 24 h).
`O=C(O)c1cccnc1Nc1cccc(C(F)(F)F)c1` — result for “TEAD reporter activity”: 104 ± 7.3% (MCF7; firefly luciferase reporter; 25 µM, 6 h; relative to: vehicle).
The labelling of `N#CC(=Cc1c(Cl)cccc1Cl)C(=O)NCCc1ccccc1` is reported as 16.5% (UCHL1; covalent, intact protein LC-MS; 12.5 µM).
The cytotoxicity of `CCOC(=O)c1nn(-c2cccc(Cl)c2)/c(=N/N=C(\C)c2ccc(NC(=O)c3ccc(Cl)cc3)cc2)s1` is reported as 96.6% (MCF7; MTT; 1.25 µM).
Under “TEAD reporter activity”, `C=CC(=O)c1cccnc1Nc1cccc(C(F)(F)F)c1` is recorded as 55.9 ± 2.2% (MCF7; firefly luciferase reporter; 50 µM, 6 h; relative to: vehicle).
`CC(=O)c1nn(-c2ccc(Cl)cc2)/c(=N/N=C(\C)c2ccc(NC(=O)c3ccccc3)cc2)s1` has a toxicity of 80.8% and 95.9% (MCF7; 0.312 µM).

Repeated from above:
`CCOC(=O)c1nn(-c2cccc(Cl)c2)/c(=N/N=C(\C)c2ccc(NC(=O)c3ccccc3)cc2)s1` gave a cytotoxicity of 97.4% (MCF7; MTT; 0.625 µM).
The labelling of `N#CC(=Cc1c(Cl)cccc1Cl)C(=O)NCCc1ccccc1` is reported as 16.5% (UCHL1; covalent, intact protein LC-MS; 12.5 µM).
